Published values pooled from the literature.
Several values in a cell are separate wells, animals, samples, runs or records.
Chain of UniProt P32245 (whole entry, looked up): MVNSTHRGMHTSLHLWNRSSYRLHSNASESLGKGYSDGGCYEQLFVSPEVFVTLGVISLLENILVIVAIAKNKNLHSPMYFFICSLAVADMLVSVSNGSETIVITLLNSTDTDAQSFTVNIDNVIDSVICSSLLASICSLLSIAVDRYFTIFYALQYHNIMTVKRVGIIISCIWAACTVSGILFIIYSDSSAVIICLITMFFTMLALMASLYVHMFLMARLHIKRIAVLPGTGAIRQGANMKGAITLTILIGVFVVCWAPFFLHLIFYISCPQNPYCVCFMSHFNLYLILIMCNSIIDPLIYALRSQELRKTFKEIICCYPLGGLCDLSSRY
Chain of UniProt P53778 (whole entry, looked up): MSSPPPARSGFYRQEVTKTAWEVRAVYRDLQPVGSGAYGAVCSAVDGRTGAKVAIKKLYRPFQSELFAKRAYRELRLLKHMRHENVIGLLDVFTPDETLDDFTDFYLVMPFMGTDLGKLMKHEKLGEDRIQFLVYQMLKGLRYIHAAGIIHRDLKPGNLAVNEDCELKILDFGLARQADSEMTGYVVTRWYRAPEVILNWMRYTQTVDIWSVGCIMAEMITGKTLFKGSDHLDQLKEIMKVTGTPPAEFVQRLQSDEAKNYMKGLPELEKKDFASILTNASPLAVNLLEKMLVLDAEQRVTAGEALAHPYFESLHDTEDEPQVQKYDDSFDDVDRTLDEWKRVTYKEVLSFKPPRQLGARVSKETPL
Chain of UniProt Q8TF76 (whole entry, looked up): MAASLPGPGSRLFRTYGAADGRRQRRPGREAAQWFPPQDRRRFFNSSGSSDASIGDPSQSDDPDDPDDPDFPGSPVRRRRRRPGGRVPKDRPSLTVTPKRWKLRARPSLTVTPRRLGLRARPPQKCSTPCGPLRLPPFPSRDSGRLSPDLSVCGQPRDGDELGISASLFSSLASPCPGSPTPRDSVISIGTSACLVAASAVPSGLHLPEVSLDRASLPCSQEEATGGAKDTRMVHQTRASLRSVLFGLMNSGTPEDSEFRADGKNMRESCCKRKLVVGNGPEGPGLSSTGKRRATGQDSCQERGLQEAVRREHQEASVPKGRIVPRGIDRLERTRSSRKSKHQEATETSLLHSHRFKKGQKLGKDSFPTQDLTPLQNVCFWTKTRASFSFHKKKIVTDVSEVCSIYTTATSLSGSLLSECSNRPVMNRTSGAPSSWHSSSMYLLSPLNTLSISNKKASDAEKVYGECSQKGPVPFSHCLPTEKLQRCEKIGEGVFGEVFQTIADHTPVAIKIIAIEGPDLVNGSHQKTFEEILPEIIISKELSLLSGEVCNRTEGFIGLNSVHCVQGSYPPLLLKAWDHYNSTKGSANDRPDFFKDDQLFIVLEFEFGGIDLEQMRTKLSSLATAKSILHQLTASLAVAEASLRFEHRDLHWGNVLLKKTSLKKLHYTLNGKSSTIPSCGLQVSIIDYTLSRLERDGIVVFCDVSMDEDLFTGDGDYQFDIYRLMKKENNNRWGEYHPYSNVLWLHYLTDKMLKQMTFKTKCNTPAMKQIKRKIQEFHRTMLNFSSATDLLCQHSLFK
Chain of UniProt P15735 (whole entry, looked up): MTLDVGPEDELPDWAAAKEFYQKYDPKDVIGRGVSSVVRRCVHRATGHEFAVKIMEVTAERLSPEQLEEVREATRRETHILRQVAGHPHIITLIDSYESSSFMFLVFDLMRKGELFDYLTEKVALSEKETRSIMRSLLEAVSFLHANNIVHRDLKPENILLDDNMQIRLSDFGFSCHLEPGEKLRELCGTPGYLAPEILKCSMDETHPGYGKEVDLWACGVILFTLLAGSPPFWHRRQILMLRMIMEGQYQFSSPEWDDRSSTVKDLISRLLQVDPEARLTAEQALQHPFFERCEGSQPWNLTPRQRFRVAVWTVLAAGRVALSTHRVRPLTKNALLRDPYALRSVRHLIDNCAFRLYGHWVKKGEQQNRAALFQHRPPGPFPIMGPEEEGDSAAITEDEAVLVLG

FC(F)(F)c1cccc(Nc2nc(NCCOc3ccccc3)nc3[nH]cnc23)c1  inhibition (Mitogen-activated protein kinase 12 (MAPK12, Homo sapiens, UniProt P53778); Z'-LYTE or Adapta; 5 µM): 9%
CC(=O)NC[C@H]1[C@H](O)[C@H](O)[C@@H]2[C@H](O)C[C@@H](CO)N21  inhibition (Spodoptera litura β-N-acetylglucosaminidase; crude enzyme; 0.00313 µM, run 1, added: p-nitrophenyl GlcNAc): 22.3%
O=C(Nc1cccnn1)N1CCC(=Cc2cccc(Oc3ccc(C(F)(F)F)cn3)c2)CC1  inhibition (Phosphorylase b kinase gamma catalytic chain, liver/testis isoform (PHKG2, Homo sapiens, UniProt P15735); kinase activity, inhibitor; 50 µM, human): -3%
O=C1C=CC(=O)C=C1  inhibition (Genome polyprotein, NS3 helicase domain (Hepatitis C virus genotype 1b, UniProt Q9WMX2); DNA binding, inhibitor; hepatitis C virus; 100 µM, added: Cy5-dT15 DNA): 0%
CN1CCN(c2cc(-c3ccncc3)c(-c3ccc4ccccc4c3)nn2)CC1  inhibition (C-C chemokine receptor type 6 (CCR6, Homo sapiens, UniProt P51684); antagonist, FLIPR; 10 µM): -9.4%
C[C@H]1CN(c2n[nH]c3nc(N[C@H]4CC[C@H](NS(=O)(=O)CCC(F)(F)F)CC4)ncc23)CCO1  relative abundance (Insulin-like growth factor 1 receptor (IGF1R, Homo sapiens, UniProt P08069); inhibitor, Kinobeads competition profiling; 0.8 µM; baseline: vehicle): 0.99
COc1cc(Nc2ncc(F)c(Nc3ccc4c(n3)NC(=O)C(C)(C)O4)n2)cc(OC)c1OC  inhibition (Serine/threonine-protein kinase N2 (PKN2, Homo sapiens, UniProt Q16513); KINOMEscan; 10 µM): 70%
COc1ccc(N2C(=O)N(c3c(C)cccc3Cl)Cc3cnc(Nc4ccc(C5CCN(C)CC5)cc4OC)nc32)nc1  inhibition (Serine/threonine-protein kinase haspin (HASPIN, Homo sapiens, UniProt Q8TF76); kinase activity; 0.5 µM): 13%
O=C(Nc1cnccc1Cl)N1CCN(Cc2ccc3c(c2)OC(F)(F)O3)CC1  inhibition (Melanocortin receptor 4 (MC4R, Homo sapiens, UniProt P32245); radioligand binding; concentration not given): 12% and 17%

Excerpt of the above:
C[C@H]1CN(c2n[nH]c3nc(N[C@H]4CC[C@H](NS(=O)(=O)CCC(F)(F)F)CC4)ncc23)CCO1  relative abundance (Insulin-like growth factor 1 receptor (IGF1R, Homo sapiens, UniProt P08069); inhibitor, Kinobeads competition profiling; 0.8 µM; baseline: vehicle): 0.99
